Measurements pooled from the literature.
Each line is one published result; not all experiments were run side by side. Several values in a cell are separate wells, animals, samples, runs or records. ± gives the spread as reported.
Eif4e: Eukaryotic translation initiation factor 4E (Eif4e, Mus musculus, UniProt P63073)
Chain of UniProt P63073 (whole entry, looked up): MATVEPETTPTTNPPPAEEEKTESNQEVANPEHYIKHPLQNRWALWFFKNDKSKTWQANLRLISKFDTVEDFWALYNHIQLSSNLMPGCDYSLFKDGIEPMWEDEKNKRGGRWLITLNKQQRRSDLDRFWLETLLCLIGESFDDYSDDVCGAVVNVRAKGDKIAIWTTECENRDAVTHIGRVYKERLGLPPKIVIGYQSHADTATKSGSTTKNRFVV
POLB I260M: DNA polymerase beta (POLB, Homo sapiens, UniProt P06746, I260M)
CXCL8: Interleukin-8 (CXCL8, Homo sapiens, UniProt P10145)
Chain of UniProt P10145 (whole entry, looked up): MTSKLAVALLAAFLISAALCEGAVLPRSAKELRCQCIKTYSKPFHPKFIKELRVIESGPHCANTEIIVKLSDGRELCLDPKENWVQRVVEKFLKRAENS
POLB: DNA polymerase beta (POLB, Homo sapiens, UniProt P06746)
Chain of UniProt Q16548 (whole entry, looked up): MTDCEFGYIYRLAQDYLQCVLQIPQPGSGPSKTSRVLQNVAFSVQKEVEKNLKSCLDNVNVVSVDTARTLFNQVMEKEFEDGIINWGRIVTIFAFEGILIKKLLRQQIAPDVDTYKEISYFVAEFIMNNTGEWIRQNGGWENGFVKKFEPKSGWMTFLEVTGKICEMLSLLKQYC
Chain of UniProt Q9UM07 (whole entry, looked up): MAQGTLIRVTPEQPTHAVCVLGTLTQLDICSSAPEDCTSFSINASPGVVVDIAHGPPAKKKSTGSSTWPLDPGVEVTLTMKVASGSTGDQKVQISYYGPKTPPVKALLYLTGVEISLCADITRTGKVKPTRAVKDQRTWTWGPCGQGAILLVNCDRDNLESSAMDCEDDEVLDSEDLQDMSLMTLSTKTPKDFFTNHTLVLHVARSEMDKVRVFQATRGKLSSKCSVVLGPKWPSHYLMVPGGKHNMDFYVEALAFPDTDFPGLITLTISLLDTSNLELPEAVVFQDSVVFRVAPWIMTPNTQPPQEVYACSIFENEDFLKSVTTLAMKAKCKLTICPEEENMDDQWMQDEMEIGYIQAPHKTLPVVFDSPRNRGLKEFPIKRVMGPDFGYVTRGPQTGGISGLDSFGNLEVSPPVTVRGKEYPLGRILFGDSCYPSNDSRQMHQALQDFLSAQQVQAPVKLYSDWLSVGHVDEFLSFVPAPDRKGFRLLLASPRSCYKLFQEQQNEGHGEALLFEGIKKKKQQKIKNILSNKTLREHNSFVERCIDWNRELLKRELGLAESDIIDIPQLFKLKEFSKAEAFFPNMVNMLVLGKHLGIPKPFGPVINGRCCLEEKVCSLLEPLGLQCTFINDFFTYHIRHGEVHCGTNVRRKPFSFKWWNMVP
Chain of UniProt Q13148 (whole entry, looked up): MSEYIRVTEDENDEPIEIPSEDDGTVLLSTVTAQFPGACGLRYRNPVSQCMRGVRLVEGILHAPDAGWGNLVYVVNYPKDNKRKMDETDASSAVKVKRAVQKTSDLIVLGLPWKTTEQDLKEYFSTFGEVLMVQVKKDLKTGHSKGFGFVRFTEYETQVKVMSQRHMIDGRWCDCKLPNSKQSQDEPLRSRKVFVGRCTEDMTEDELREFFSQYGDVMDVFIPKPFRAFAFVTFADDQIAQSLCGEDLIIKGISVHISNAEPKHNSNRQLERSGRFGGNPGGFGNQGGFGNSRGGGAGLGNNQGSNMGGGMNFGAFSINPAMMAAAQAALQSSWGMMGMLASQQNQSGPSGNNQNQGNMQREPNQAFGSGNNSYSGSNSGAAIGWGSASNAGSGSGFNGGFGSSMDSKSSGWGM
Chain of UniProt Q8NEB9 (whole entry, looked up): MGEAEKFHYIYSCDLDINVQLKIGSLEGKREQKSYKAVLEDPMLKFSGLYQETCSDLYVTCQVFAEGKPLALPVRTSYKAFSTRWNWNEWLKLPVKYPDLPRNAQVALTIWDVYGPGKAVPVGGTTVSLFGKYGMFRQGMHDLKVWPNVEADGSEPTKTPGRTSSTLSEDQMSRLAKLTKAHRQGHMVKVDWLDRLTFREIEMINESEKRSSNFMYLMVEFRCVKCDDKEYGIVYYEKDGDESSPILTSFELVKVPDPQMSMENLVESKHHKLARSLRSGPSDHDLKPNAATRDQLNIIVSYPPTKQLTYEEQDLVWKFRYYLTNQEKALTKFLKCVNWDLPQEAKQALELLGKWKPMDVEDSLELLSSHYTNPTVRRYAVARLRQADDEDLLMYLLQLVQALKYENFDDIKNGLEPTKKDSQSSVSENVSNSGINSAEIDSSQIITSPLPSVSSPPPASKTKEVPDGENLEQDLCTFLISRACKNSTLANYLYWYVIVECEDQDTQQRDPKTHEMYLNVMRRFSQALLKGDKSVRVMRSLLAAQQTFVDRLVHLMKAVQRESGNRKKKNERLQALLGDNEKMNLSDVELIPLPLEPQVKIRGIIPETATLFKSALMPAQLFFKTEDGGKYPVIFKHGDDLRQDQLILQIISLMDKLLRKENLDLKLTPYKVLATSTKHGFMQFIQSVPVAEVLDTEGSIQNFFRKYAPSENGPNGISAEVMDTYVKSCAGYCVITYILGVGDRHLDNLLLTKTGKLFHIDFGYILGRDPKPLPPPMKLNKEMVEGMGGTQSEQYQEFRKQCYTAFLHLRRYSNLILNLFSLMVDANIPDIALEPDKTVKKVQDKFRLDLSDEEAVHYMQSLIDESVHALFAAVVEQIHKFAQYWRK
Chain of UniProt Q8I2X3 (whole entry, looked up): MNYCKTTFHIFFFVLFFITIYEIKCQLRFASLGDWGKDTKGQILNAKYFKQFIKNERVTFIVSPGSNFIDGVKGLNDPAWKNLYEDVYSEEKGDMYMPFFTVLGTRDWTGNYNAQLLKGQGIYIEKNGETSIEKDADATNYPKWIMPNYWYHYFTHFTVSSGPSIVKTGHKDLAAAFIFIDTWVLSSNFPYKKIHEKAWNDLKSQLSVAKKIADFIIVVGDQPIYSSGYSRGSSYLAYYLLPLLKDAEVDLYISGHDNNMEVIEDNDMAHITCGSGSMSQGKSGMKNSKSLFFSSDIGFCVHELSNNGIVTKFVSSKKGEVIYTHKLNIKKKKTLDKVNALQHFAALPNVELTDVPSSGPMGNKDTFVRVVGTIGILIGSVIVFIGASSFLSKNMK
Chain of UniProt O00214 (whole entry, looked up): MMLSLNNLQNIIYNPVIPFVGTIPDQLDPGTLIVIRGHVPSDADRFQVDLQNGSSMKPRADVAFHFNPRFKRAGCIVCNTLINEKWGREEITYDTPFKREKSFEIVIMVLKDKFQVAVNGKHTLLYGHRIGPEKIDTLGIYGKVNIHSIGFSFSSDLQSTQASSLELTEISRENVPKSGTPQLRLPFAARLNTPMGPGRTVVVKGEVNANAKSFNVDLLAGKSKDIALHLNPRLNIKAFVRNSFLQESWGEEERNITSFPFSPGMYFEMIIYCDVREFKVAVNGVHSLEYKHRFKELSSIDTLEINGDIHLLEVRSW
Chain of UniProt Q96301 (whole entry, looked up): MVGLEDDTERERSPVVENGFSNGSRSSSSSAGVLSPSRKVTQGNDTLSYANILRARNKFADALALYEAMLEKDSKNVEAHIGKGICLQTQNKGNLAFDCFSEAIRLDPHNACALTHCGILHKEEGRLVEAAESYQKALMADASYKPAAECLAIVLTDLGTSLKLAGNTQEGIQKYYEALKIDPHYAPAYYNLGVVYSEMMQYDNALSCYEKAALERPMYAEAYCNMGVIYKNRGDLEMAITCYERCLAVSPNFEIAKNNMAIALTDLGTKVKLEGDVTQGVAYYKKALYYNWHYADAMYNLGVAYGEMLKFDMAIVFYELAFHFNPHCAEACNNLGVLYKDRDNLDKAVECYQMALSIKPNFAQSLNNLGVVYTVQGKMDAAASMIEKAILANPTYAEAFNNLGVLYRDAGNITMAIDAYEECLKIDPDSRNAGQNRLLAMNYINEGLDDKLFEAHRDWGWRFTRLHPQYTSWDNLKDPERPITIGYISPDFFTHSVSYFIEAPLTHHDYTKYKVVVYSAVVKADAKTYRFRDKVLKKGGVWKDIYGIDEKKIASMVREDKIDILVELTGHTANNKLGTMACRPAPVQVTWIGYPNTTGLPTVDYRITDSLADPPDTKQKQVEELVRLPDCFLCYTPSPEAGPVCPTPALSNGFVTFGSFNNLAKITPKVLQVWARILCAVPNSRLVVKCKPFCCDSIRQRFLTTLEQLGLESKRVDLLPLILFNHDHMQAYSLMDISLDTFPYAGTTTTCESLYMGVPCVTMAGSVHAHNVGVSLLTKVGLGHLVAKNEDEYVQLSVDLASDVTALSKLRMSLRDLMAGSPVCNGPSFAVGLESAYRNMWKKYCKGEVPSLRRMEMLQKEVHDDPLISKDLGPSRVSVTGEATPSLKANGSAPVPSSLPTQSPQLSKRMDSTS
Chain of UniProt P22629 (whole entry, looked up): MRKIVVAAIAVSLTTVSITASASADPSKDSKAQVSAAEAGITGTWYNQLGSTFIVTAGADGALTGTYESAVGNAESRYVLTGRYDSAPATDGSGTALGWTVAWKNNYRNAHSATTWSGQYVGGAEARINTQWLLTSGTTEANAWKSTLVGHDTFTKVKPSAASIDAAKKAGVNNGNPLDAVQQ
Chain of UniProt O95931 (whole entry, looked up): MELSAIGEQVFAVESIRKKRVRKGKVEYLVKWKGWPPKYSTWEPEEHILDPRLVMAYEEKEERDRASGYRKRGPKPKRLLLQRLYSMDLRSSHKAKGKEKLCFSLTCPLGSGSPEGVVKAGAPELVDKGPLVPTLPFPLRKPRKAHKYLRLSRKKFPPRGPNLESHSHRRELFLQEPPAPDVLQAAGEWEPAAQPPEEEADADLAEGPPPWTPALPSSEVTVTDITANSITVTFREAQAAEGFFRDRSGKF

Compound | target | test | system | conditions | Kd
Cc1c(C)n(-c2ccc(Br)cc2)c2ncnc(N3CCC(C(N)C(=O)N4CCCC4)CC3)c12 (stereo not drawn) | PADI4 (Homo sapiens, UniProt Q9UM07) | surface plasmon resonance | – | – | 2.82 µM
OC[C@H]1Oc2cc(Cc3ccccc3)cc3c2[C@@H](OC3)[C@H]1O | Galectin-8 (LGALS8, Homo sapiens, UniProt O00214) | cell-free assay, FP | – | – | 240 µM
NS(=O)(=O)c1c(F)c(F)c(S(=O)(=O)CCc2ccccc2)c(N2CCOCC2)c1F | CA2 (Homo sapiens, UniProt P00918, A65S/F130A/I91T/L203N/N67K/V134S) | – | – | pH 7 | 0.45 µM
Cc1csc(CCCNc2nc3c(c(=O)[nH]2)[n+](C)cn3C2OC(COP(=O)(O)OP(=O)([O-])OP(=O)(O)OCC3OC(n4cnc5c(=O)[nH]c(N)nc54)C(O)C3O)C(O)C2O)n1 (stereo not drawn) | Eif4e | differential scanning fluorimetry | – | – | 7.99 µM
Cc1cn([C@H]2C[C@H](O)[C@@H](COP(=O)(O)OP(=O)(O)C(F)(F)P(=O)(O)O)O2)c(=O)[nH]c1=O | POLB I260M | substrate, single turnover kinetics | – | 37 °C | 67.2 ± 25.3 µM
CC(=O)N[C@@H]1[C@@H](O[C@@H]2O[C@H](C(=O)O)[C@@H](O[C@@H]3O[C@H](COS(=O)(=O)O)[C@@H](OS(=O)(=O)O)[C@H](O[C@@H]4O[C@H](C(=O)O)[C@@H](OS(=O)(=O)O)[C@H](OS(=O)(=O)O)[C@H]4OS(=O)(=O)O)[C@H]3NC(C)=O)[C@H](OS(=O)(=O)O)[C@H]2OS(=O)(=O)O)[C@H](OS(=O)(=O)O)[C@@H](COS(=O)(=O)O)O[C@H]1n1ccnn1 | CXCL8 | ligand displacement, FP | – | – | 10.6 µM
Nc1nc2c(ncn2C2CC(O)C(COP(=O)(O)OP(=O)(O)C(Cl)P(=O)(O)O)O2)c(=O)[nH]1 (mixture of isomers) | POLB | nucleotide binding, substrate, single turnover kinetics | – | 37 °C, dG misincorporation opposite A | 1000 ± 500 µM
CC(=O)N[C@@H]1[C@@H](O[C@@H]2O[C@H](C(=O)O)[C@@H](O[C@@H]3O[C@H](CO)[C@@H](OS(=O)(=O)O)[C@H](O[C@@H]4O[C@H](C(=O)O)[C@@H](OS(=O)(=O)O)[C@H](OS(=O)(=O)O)[C@H]4OS(=O)(=O)O)[C@H]3NC(C)=O)[C@H](OS(=O)(=O)O)[C@H]2OS(=O)(=O)O)[C@H](OS(=O)(=O)O)[C@@H](CO)O[C@H]1N=[N+]=[N-] | CXCL8 | ligand displacement, FP | – | – | 15.6 µM
NC(=O)CN1C(=O)C(O)(CC(=O)c2cccc(N)c2)c2ccccc21 (stereo not drawn) | uncharacterized protein (Leishmania donovani, UniProt A0A3Q8IA09) | fluorometric titration | – | pH 8.0, 298 K | 1.6 ± 0.2 µM
N=C1N[C@H]2[C@H](CS[C@H]2CCCCC(=O)NCCNC(=O)c2cc3cc(F)c(O)c(F)c3oc2=O)N1 | Streptavidin (Streptomyces avidinii, UniProt P22629) | binding, FP | – | pH 7.4 | 2.95 µM
Nc1nc2c(ncn2[C@H]2C[C@H](O)[C@@H](COP(=O)(O)OP(=O)(O)C(Br)(Br)P(=O)(O)O)O2)c(=O)[nH]1 | POLB I260M | nucleotide binding, substrate, single turnover kinetics | – | 37 °C, dG misincorporation opposite A | 177 ± 87 µM
O=C(O)CN(CCNc1ccc(N=Nc2cc(C(F)(F)F)cc(C(F)(F)F)c2)c2ccccc12)CC(=O)O | MAPT (Homo sapiens, UniProt P10636) | binding, MST | – | – | 1.54 µM
COc1ccc2c(c1)C1CC(C)(N2)c2c(C)nc3ccc(OC)cc3c21 (stereo not drawn) | Glideosome-associated protein 50 (GAP50, Plasmodium falciparum, UniProt Q8I2X3) | surface plasmon resonance | – | – | < 75 µM
CO[C@@H]1[C@H](O)[C@@H](COP(=O)(O)OP(=O)([O-])C(F)(F)P(=O)(O)OP(=O)(O)OC[C@H]2O[C@@H](n3cnc4c(=O)[nH]c(N)nc43)[C@H](O)[C@@H]2O)O[C@H]1n1c[n+](C)c2c(O)nc(N)nc21 | Eukaryotic translation initiation factor 4E, residues 28-217 (Eif4e, Mus musculus, UniProt P63073) | binding, fluorescence quenching titration | – | pH 7.2, 20 °C | 0.02 µM
Cc1cc(NCC(=O)C(C)C)c2nc(N3CCOC[C@H]3C)cc(=O)n2c1 | PIK3C3 (Homo sapiens, UniProt Q8NEB9) | binding, SPR | – | – | 0.736 µM
Cc1n[nH]c(C)c1CCCOc1cc(OCCCCCCNC(=O)OC(C)(C)C)cc(C(=O)O)c1 | Transthyretin (TTR, Homo sapiens, UniProt P02766) | cell-free assay, FP | – | pH 7.4 | 1.04 µM
C=CC(=O)Nc1cc(Nc2nccc(-n3ccc4nc(OC)ccc43)n2)c(OC)cc1N(C)CCN(C)C | KDR (Homo sapiens, UniProt P35968) | cell-free assay, competition with immobilised ligand | – | – | 0.656 µM
CC[C@H](C)[C@H](NC(=O)[C@H](Cc1c[nH]c2ccccc12)NC(=O)[C@@H](NC(=O)[C@H](CCC(=O)O)NC(=O)[C@@H]1CCCN1C(=O)[C@H](CCCNC(=N)N)NC(C)=O)[C@@H](C)CC)C(=O)N[C@@H](C)C(=O)N[C@@H](CCC(N)=O)C(=O)N[C@@H](CCC(=O)O)C(=O)N[C@@H](CC(C)C)C(=O)N[C@@H](CCCNC(=N)N)C(=O)N[C@@H](CCCNC(=N)N)C(=O)N[C@@H](C)C(=O)NCC(=O)N[C@@H](CCCCN)C(=O)N[C@H](C(=O)N[C@@H](CC(C)C)C(=O)N[C@@H](CC(N)=O)C(=O)N[C@@H](C)C(=O)N[C@@H](Cc1ccc(O)cc1)C(=O)N[C@@H](Cc1ccc(O)cc1)C(=O)N[C@@H](C)C(=O)N[C@@H](CCCNC(=N)N)C(N)=O)C(C)C | Bcl-2-related protein A1 (Homo sapiens, UniProt Q16548) | binding, FP | – | pH 7.8 | ~0.047 µM
C[n+]1cn([C@@H]2O[C@H](COP(=O)(O)OP(=O)([O-])OP(=O)(O)OC[C@H]3O[C@@H](n4cnc5c(NCCCCCCN)ncnc54)[C@H](O)[C@@H]3O)[C@@H](O)[C@H]2O)c2nc(N)nc(O)c21 | Eif4e | cap analogue binding, pyrene fluorescence competition | – | 20 °C | 0.88 µM and 0.884 µM
Nc1nc2c(ncn2[C@H]2C[C@H](O)[C@@H](COP(=O)(O)OP(=O)(O)[C@H](Cl)P(=O)(O)O)O2)c(=O)[nH]1 | DNA polymerase beta (POLB, Homo sapiens, UniProt P06746, R183A) | substrate, pre-steady-state kinetics | – | incorporation opposite dC in gapped DNA | 110 ± 3 µM
CC[C@H](C)[C@H](NC(=O)[C@H](CC(C)C)NC(=O)[C@H](CCCNC(=N)N)NC(=O)c1ccc(CN2CCN(C)CC2)cc1)C(=O)N[C@@H](Cc1ccccc1)C(N)=O | Cyclin-A2 (CCNA2, Homo sapiens, UniProt P20248) | binding, tryptophan fluorescence titration | – | co-expressed GroES-GroEL | 5.44 ± 0.257 µM
C[n+]1ccc(/C=N/NC(=O)c2cccc(C(=O)N/N=C/c3cc[n+](C)c4ccccc34)n2)c2ccccc21 | MYC snap-back G4 DNA | binding, native ESI-MS | 100 mM trimethylammonium acetate | 1 mM KCl | 0.081 µM
CC[C@H](C)[C@@H]1NC(=O)[C@H](C)NC(=O)[C@H](C)NC(=O)[C@H]([C@@H](C)O)NC(=O)[C@H](Cc2ccccc2)NC(=O)[C@@H]2CSSC[C@@H]3NC(=O)[C@H](C(C)C)NC(=O)[C@H](CCCCN)NC(=O)[C@H](CO)NC(=O)[C@H](CCCCN)NC(=O)[C@@H]4CSSC[C@H](NC(=O)[C@H](CO)NC(=O)[C@H](CCC(=O)O)NC(=O)CNC(=O)[C@H](CSSC[C@H](NC(=O)CNC1=O)C(=O)N[C@@H](CO)C(=O)N4)NC(=O)[C@@H]1CCCN1C(=O)[C@H](Cc1ccccc1)NC(=O)CNC(=O)[C@H](CC(N)=O)NC(=O)[C@H](CCCCN)NC(=O)[C@H](Cc1ccc(O)cc1)NC3=O)C(=O)N[C@@H](C(C)C)C(=O)N[C@@H](Cc1ccc(O)cc1)C(=O)N[C@@H](CC(C)C)C(=O)N1CCC[C@H]1C(=O)N2 | POPC/POPE lipid membrane | membrane binding, surface plasmon resonance | POPC/POPE 80:20 vesicles | pH 7.4 | 5.8 ± 0.03 µM
COc1ccc2c(c1)[C@@H]1C[C@]1(C(=O)N1C3CCC1CN(C)C3)Cn1c-2c(C2CCCCC2)c2ccc(C(=O)NS(=O)(=O)N(C)C)cc21 | Probable UDP-N-acetylglucosamine--peptide N-acetylglucosaminyltransferase SPINDLY (SPY, Arabidopsis thaliana, UniProt Q96301) | binding, biolayer interferometry | – | with: SPY wild-type | 2.31 µM
CC[C@H](C)[C@@H]1NC(=O)[C@H](C)NC(=O)[C@H](C)NC(=O)[C@H]([C@@H](C)O)NC(=O)[C@H](Cc2ccccc2)NC(=O)[C@@H]2CSSC[C@@H]3NC(=O)[C@H](C(C)C)NC(=O)[C@H](CCCCN)NC(=O)[C@H](CO)NC(=O)[C@H](CCCCN)NC(=O)[C@@H]4CSSC[C@H](NC(=O)[C@H](CO)NC(=O)[C@H](CCC(=O)O)NC(=O)CNC(=O)[C@H](CSSC[C@H](NC(=O)CNC1=O)C(=O)N[C@@H](CO)C(=O)N4)NC(=O)[C@@H]1CCCN1C(=O)[C@H](Cc1ccccc1)NC(=O)CNC(=O)[C@H](C)NC(=O)[C@H](CCCCN)NC(=O)[C@H](Cc1ccc(O)cc1)NC3=O)C(=O)N[C@@H](C(C)C)C(=O)N[C@@H](Cc1ccc(O)cc1)C(=O)N[C@@H](CC(C)C)C(=O)N1CCC[C@H]1C(=O)N2 | POPC/POPE lipid membrane | membrane binding, surface plasmon resonance | POPC/POPE 80:20 vesicles | pH 7.4 | 4.85 ± 0.27 µM
CCN(CC)CCCC[C@H](NC(=O)[C@H](CC(C)C)NC(=O)[C@H](C)NC(=O)[C@H](Cc1ccccc1)NC(=O)c1ccc(C(C)(C)C)cc1)C(=O)N[C@@H](CO)C(=O)NCCOCCOCCOCCOCCOCCOCCOCCOCCOCCOCCOCCNC(=O)CCCC[C@@H]1SC[C@@H]2NC(=O)N[C@@H]21 | Chromobox protein homolog 7 (Homo sapiens, UniProt O95931) | binding, ITC | – | – | 0.22 µM
Nc1nc2c(ncn2[C@H]2C[C@H](O)[C@@H](COP(=O)(O)OP(=O)(O)[C@H](F)P(=O)(O)O)O2)c(=O)[nH]1 | POLB | substrate, quench-flow kinetics | – | pH 8.0, 37 °C, misincorporation opposite T in gapped DNA | 740 ± 140 µM
CC(C)C[C@@H]1NC(=O)[C@H](Cc2ccc(O)cc2)NC(=O)[C@H](C(C)C)NC(=O)[C@@H]2CSSC[C@@H]3NC(=O)[C@H](CO)NC(=O)[C@@H]4CSSC[C@H](NC(=O)[C@@H]5CCCN5C(=O)[C@H](Cc5ccccc5)NC(=O)CNC(=O)[C@H](CC(N)=O)NC(=O)[C@H](CCCCN)NC(=O)[C@H](Cc5ccc(O)cc5)NC(=O)[C@H](CSSC[C@H](NC(=O)[C@@H]5CCCN5C1=O)C(=O)N[C@@H](Cc1ccccc1)C(=O)N[C@@H]([C@@H](C)O)C(=O)N[C@@H](C)C(=O)N[C@@H](C)C(=O)N[C@@H](C)C(=O)NCC(=O)N4)NC(=O)[C@H](C(C)C)NC(=O)[C@H](CCCCN)NC(=O)[C@H](CO)NC(=O)[C@H](CCCCN)NC3=O)C(=O)NCC(=O)N[C@@H](CCC(=O)O)C(=O)N[C@@H](CO)C(=O)N2 | POPC/POPE lipid membrane | membrane binding, surface plasmon resonance | POPC/POPE 80:20 vesicles | pH 7.4 | 14.7 ± 1.8 µM
Cc1cn(C2CC(O)C(COP(=O)(O)OP(=O)(O)C(Cl)P(=O)(O)O)O2)c(=O)[nH]c1=O (mixture of isomers) | POLB I260M | substrate, single turnover kinetics | – | 37 °C | 55.5 ± 13.6 µM
O=C1c2sc(-c3ccc(N4CCC(F)C4)nc3F)nc2CCN1c1cccnc1 (stereo not drawn) | TAR DNA-binding protein 43, aggregated (TARDBP, Homo sapiens, UniProt Q13148) | surface plasmon resonance | brain-derived aggregates | – | 0.06 ± 0.009 µM
